Published values from different studies.
Values joined by “and” are separate records of one study, mostly repeats; a detail may differ. ± marks the error that the study gave.
rep nsp3 macrodomain: Replicase polyprotein 1ab, nsp3 macrodomain (rep, Severe acute respiratory syndrome coronavirus 2, UniProt P0DTD1)
rep main protease: Replicase polyprotein 1ab, main protease (rep, Severe acute respiratory syndrome coronavirus 2, UniProt P0DTD1)
rep papain-like protease: Replicase polyprotein 1ab, papain-like protease (rep, Severe acute respiratory syndrome coronavirus 2, UniProt P0DTD1)

Compound	target	assay	test system	conditions	inhibition
CC(=O)Nc1ccc(S(=O)(=O)NNc2ncnc3sccc23)cc1	rep nsp3 macrodomain	ADP-ribosylhydrolase activity, inhibitor, gel-based de-MARylation	–	10 µM, SARS-CoV-2 Mac1	23%
N=C(N)Nc1ccc(-c2ccc(-c3ccc(NC(=N)N)c(Cl)c3)o2)cc1Cl	rep main protease	enzyme activity, inhibitor, fluorescence	–	50 µM, pH 7.2	100%
COC(=O)c1cc2c(=O)n3ccccc3nc2n1Cc1ccccc1	rep main protease	enzyme activity, inhibitor	–	1 µM	10%
COc1cccc2c1C(=O)C=CC2=O	rep main protease	enzyme activity, inhibitor	–	10 µM	95.9%
O=C(NCCc1cccc(F)c1)[C@@H](c1cncnc1)N(C(=O)[C@H](F)Cl)c1ccc(S(F)(F)(F)(F)F)cc1	rep papain-like protease	enzyme activity, inhibitor	–	20 µM	< 1%
COc1cc2[nH]c(=O)n(CCC(=O)NCc3ccc4c(c3)OCO4)c(=O)c2cc1OC	rep main protease	enzyme activity, inhibitor	–	100 µg/mL	0%
O=C(NC1CCN(c2ncnc3[nH]cnc23)CC1)c1cccc(NS(=O)(=O)c2ccc(C(F)(F)F)cc2)c1	Replicase polyprotein 1ab, nsp14 with nsp10 (rep, Severe acute respiratory syndrome coronavirus 2, UniProt P0DTD1)	exonuclease activity	SARS-CoV-2	0.01221 µM	1.09%
COc1ccc(-c2cc(=O)c3c(O)c(Oc4ccc(-c5cc(=O)c6c(O)cc(O)cc6o5)cc4)c(OC)cc3o2)cc1	rep papain-like protease	enzyme activity, inhibitor	–	20 µM	64.9 to 74.8%
O=C(O)CNC(=O)c1ccccc1[Se][Se]c1ccccc1C(=O)NCC(=O)O	rep main protease	enzyme activity, inhibitor	–	40 µM, mean of repeats	101%
COc1cccc(NC(=O)CSc2ccccc2C(=O)Nc2ccc3c(c2)NC(=O)C(C)O3)c1 (stereo not shown)	rep main protease	enzyme activity, inhibitor	–	100 µg/mL	0%
COc1cc(C(=O)N(CCC(=O)N2CCNCC2)Cc2cccc(Cl)c2)cc(OC)c1OC	rep nsp3 macrodomain	ADP-ribosylhydrolase activity, gel-based	–	concentration not given	inhibited
COc1cc(Oc2c(O)cc(C)cc2OC)c(C(=O)O)c(C)c1O	rep main protease	enzyme activity, inhibitor, FRET	–	10 µM	70.7%
O=C(NC1CCC(F)(F)CC1)C(c1cncnc1)N(C(=O)C(F)Cl)c1ccc(-c2cncs2)cc1 (stereo not shown)	rep main protease	enzyme activity	–	0.309 µM	100% and 96.9%
O=C(Oc1cncc(Cl)c1)c1ccco1	rep main protease	enzyme activity, inhibitor	–	50 µM	97%
O=c1c2ccccc2[se]n1-c1ccc(F)cc1	rep main protease	enzyme activity, inhibitor	–	0.3 µM	67%
COc1c(O[C@@H]2O[C@H](C(=O)O)[C@@H](O)[C@H](O)[C@H]2O)cc(O)c2c(=O)cc(-c3ccccc3)oc12	rep main protease	enzyme activity	–	50 µM	inactive
O=C(O)c1ccccc1[Se][Se]c1ccccc1C(=O)O	rep main protease	enzyme activity, inhibitor	–	40 µM, mean of repeats	23.5%
Nc1cncc(-n2[se]c3ccccc3c2=O)c1	rep main protease	enzyme activity, inhibitor	–	0.3 µM	41.7%
COC(=O)Cn1[se]c2ccccc2c1=O	rep main protease	enzyme activity, inhibitor	–	40 µM, mean of repeats	102%

Compound	target	assay	test system	conditions	inhibition
O=c1c2ccccc2[se]n1-c1ccncc1	rep main protease	enzyme activity, inhibitor	–	0.3 µM	66%
Nn1cnn2c(SCC(=O)Nc3nnc(SCC(=O)Nc4ccc(S(N)(=O)=O)cc4)s3)nnc12	rep main protease	enzyme activity, inhibitor	–	100 µg/mL	12%
O=c1c2ccccc2sn1-c1ccccc1	rep main protease	enzyme activity, inhibitor	–	1 µM	96.6%
Cc1cc(-n2[se]c3ccccc3c2=O)ccn1	rep main protease	enzyme activity, inhibitor	–	0.3 µM	59.2%
CCOc1cc(/C=N/NC(=O)COCC(=O)N/N=C/c2ccc(O)c(OCC)c2)ccc1O	rep papain-like protease	enzyme activity, inhibitor	–	100 µg/mL	0%
O=C(NC1CCC(F)(F)CC1)C(c1cncnc1)N(C(=O)C(F)Cl)c1ccc(OC(F)(F)F)cc1 (stereo not shown)	rep main protease	enzyme activity, inhibitor	–	0.926 µM	99.6%
CC1C(NC(=O)c2ccccc2[Se][Se]c2ccccc2C(=O)NC2CC3CC(C2C)C3(C)C)CC2CC1C2(C)C (stereo not shown)	rep main protease	enzyme activity, inhibitor	–	40 µM, mean of repeats	93.1%
Cc1nc(-c2cccnc2)sc1C(=O)Nc1ccccc1-c1cn2c(CN3CCOCC3)csc2n1	rep main protease	enzyme activity, inhibitor	–	50 µM	19.4%
CC1C(n2[se]c3ccccc3c2=O)CC2CC1C2(C)C (stereo not shown)	rep main protease	enzyme activity, inhibitor	–	40 µM, mean of repeats	102%
CNc1nc(NC(C)c2ccccc2Cl)nc(N2CCN(C(=O)CCl)CC2)n1 (stereo not shown)	rep main protease	inhibitor	–	1 µM	inhibited
Cn1c(=O)c2c(nc3n(CC#Cc4ccc(Cl)c(Cl)c4)ccn23)n(C)c1=O	rep main protease	enzyme activity, inhibitor, fluorescence	–	10 µM, pH 7.2	100%
C[C@](C(=O)NC1CCOCC1)(c1cncnc1)N(C(=O)[C@H](F)Cl)c1ccc(OC(F)(F)Cl)cc1	rep main protease	enzyme activity, inhibitor	–	0.37 µM	99%
CC(=O)c1ccc(C)cc1OC(=O)c1nc(S(=O)(=O)Cc2ccccc2F)ncc1Cl	rep main protease	enzyme activity, inhibitor	–	100 µM	99.9%
CC(C)[C@@H]1CC[C@@H](C)C[C@H]1NC(=O)c1ccccc1[Se][Se]c1ccccc1C(=O)N[C@@H]1C[C@H](C)CC[C@H]1C(C)C	rep main protease	enzyme activity, inhibitor	–	40 µM, mean of repeats	96.1%
CC(=O)Nc1ccc(-c2cnc(N3C(=O)CSC3c3cc4ccccc4nc3Cl)s2)cc1 (stereo not shown)	rep papain-like protease	enzyme activity, inhibitor	–	100 µM	97.5%
CC[C@@H](C)[C@H](NC(=O)c1ccccc1[Se][Se]c1ccccc1C(=O)N[C@H](C(=O)OC)[C@H](C)CC)C(=O)OC	rep main protease	enzyme activity, inhibitor	–	40 µM	103%
C[C@](C(=O)NC1CCC(F)(F)CC1)(c1cncnc1)N(C(=O)[C@H](F)Cl)c1ccc(OC(F)(F)F)cc1	rep main protease	enzyme activity	–	0.926 µM	98.6% and 98.5%
Cc1c(C(=O)N2c3ccccc3NC(=O)C2CC(=O)Nc2ccc(Cl)c(Cl)c2)oc2ccccc12 (stereo not shown)	rep main protease	nsp5 protease activity, luciferase	HEK293T	10 µM	7.9 ± 2.7%

For quick reference, copied from above:
Compound	target	assay	test system	conditions	inhibition
CC1C(NC(=O)c2ccccc2[Se][Se]c2ccccc2C(=O)NC2CC3CC(C2C)C3(C)C)CC2CC1C2(C)C (stereo not shown)	rep main protease	enzyme activity, inhibitor	–	40 µM, mean of repeats	93.1%
COC(=O)c1cc2c(=O)n3ccccc3nc2n1Cc1ccccc1	rep main protease	enzyme activity, inhibitor	–	1 µM	10%
CC(=O)Nc1ccc(-c2cnc(N3C(=O)CSC3c3cc4ccccc4nc3Cl)s2)cc1 (stereo not shown)	rep papain-like protease	enzyme activity, inhibitor	–	100 µM	97.5%
O=C(NC1CCC(F)(F)CC1)C(c1cncnc1)N(C(=O)C(F)Cl)c1ccc(OC(F)(F)F)cc1 (stereo not shown)	rep main protease	enzyme activity, inhibitor	–	0.926 µM	99.6%
O=C(NC1CCC(F)(F)CC1)C(c1cncnc1)N(C(=O)C(F)Cl)c1ccc(-c2cncs2)cc1 (stereo not shown)	rep main protease	enzyme activity	–	0.309 µM	100% and 96.9%
Cc1c(C(=O)N2c3ccccc3NC(=O)C2CC(=O)Nc2ccc(Cl)c(Cl)c2)oc2ccccc12 (stereo not shown)	rep main protease	nsp5 protease activity, luciferase	HEK293T	10 µM	7.9 ± 2.7%
